Experimental data from different studies.
A part holds a random share of what one study measured. Positions count from the first letter of the parent shown.
Chain of UniProt Q9UEE5 (whole entry, looked up): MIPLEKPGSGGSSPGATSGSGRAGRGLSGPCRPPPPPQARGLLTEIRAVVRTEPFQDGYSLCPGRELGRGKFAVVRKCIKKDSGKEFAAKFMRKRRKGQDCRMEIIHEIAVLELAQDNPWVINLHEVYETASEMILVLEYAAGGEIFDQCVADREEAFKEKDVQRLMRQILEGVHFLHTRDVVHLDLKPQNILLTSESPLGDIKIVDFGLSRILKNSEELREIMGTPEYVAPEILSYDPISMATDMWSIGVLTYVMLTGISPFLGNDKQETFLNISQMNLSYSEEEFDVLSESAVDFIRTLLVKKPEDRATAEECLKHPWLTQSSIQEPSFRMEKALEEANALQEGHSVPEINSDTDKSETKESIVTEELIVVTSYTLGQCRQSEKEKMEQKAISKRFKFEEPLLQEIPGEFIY

Set 1 — Variant: E139N; technique: DHFR PCA, deep sequencing; matrix: yeast; relative to: wild-type fitted maximum; direction: higher = stronger binding
Target: ABI1, truncated, D143A, DHFR fusion (Arabidopsis thaliana)
Notes: methotrexate growth selection, single substitutions
Starting sequence: PYL1, truncated, DHFR fusion (Arabidopsis thaliana); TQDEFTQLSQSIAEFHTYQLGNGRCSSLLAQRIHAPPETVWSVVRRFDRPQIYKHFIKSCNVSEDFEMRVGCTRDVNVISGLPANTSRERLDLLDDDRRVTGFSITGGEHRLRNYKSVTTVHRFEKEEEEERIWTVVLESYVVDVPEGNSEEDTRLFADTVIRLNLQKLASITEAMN
It gave -5.82% for “relative binding score” (added: (+)-ABA 0.11 µM).
It gave 87.7% for “relative binding score” (added: (+)-ABA 200 µM).
added: (+)-ABA 710 µM — “relative binding score”: 95.6%.
added: (+)-ABA 0.032 µM — “relative binding score”: -7.85%.
For added: (+)-ABA 4.8 µM: “relative binding score” read 42.1%.
It gave 67% for “relative binding score” (added: (+)-ABA 17 µM).

Set 2 — technique: DNA-protein interaction ELISA; form: double-stranded DNA, one strand shown; matrix: in vitro, bacterial lysate; concentration: not given; notes: whole dsDNA probe, crude lysate protein; relative to: highest signal in screen; direction: higher = stronger binding
Target: Probable WRKY transcription factor 33, N-terminal DNA-binding domain (WRKY33, Arabidopsis thaliana, UniProt Q8S8P5, residues 169-264)
Construct (chain): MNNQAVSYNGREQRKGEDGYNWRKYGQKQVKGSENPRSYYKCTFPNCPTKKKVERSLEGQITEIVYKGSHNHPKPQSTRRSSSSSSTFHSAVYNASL
`AAAAAACATTGATAAAATCTCCAGGCAAAA` gave a relative absorbance of 20.4 % of maximum.
`AAAAAAACTCTCCGGGTACAATTGCAAAAA` has a relative absorbance of 17.3 % of maximum.
`AAAAAACTGTGTCCCCGTCCCATCTCAAAA` has a relative absorbance of 20.2 % of maximum.
The relative absorbance of `AAAAAACTCCCTCTCCTCTGTCTTCCAAAA` is reported as 22.2 % of maximum.
With `AAAAAAGCTTCTCATGTTGTCTTAGGAAAA` the relative absorbance was 23.6 % of maximum.
`AAAAAATCCCTGCTCCCCTGGTTCCTAAAA` gave a relative absorbance of 24.1 % of maximum.
For `AAAAAATCTTCACCTCACTTCGGTTTAAAA`, the relative absorbance was 21.1 % of maximum.
`AAAAAAAATCTTAGCTCTATCTCATCAAAA` has a relative absorbance of 25.6 % of maximum.

Set 3 — technique: RNA Bind-n-Seq; form: RNA; matrix: in vitro; concentration: 365 nM; relative to: no-protein control; direction: higher = stronger binding
Target: RNA binding protein fox-1 homolog 2, RRM domain, GST-SBP tag (RBFOX2, Homo sapiens, UniProt O43251-10, residues 100-194)
Notes: natural RNA segment, single round, ends assumed
Residues (chain): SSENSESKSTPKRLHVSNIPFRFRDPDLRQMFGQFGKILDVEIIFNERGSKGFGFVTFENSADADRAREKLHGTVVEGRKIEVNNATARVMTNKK
For `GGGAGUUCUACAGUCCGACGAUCGAAAUAUAUCUACCCAAAGAGGUAACAUCCUAUAAAUAGUAGUAAUUAAUUUAGCUGCAACCUUUUUAGGUAUUAAAUUACAUGACAAACAGUUAAAAUGAAUUUAAGAAUGGAAUUCUCGGGUGCCAA`, “RBNS enrichment (R)” read 0.557.
For `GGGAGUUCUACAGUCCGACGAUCGGGUGUUCACAGAUGGAGCGAGCUUGCAGCCGCGUGGCUGUGCUGCUCUGUGAGAAGGCGUGCCAGCCAUUAGGAAGCCCCACCGCCAAAGGAGGUGCACCCAGGAGGGUUGGAAUUCUCGGGUGCCAA`, “RBNS enrichment (R)” read 0.911.
Under “RBNS enrichment (R)”, `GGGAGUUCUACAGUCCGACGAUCAAUAGUAACAUUUACCUGUCCACUGUGAAUCAAAGCCUGGGGCACGCUACUCAACCUUAGACACACUUACAGGCUUUUAUUUUGAUUGUGUUAUUUUAUUUUCCAUACAGUGGAAUUCUCGGGUGCCAA` is recorded as 0.741.
`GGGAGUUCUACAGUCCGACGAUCCGAGGCCCAGGUGUGGAAGCCCUCCUUCUGCUUCAAGUAACACAUCUCAGGGCCUGUCUUGUCCCCUUCUCGGAGGGCCAGAGAAAAGAUGUGGGAAGGAUAUAGCUCGGUGGAAUUCUCGGGUGCCAA`: “RBNS enrichment (R)” 0.399.
For `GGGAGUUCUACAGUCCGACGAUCGGAGAAAGCAAUAUUGUUAGAUCAGAUUAUAAAUUUGUUAAGUUUAAAGAUUCCUGGCAUACAGGCCUGCUCUAUAAAUUUGUUUUCCCCUUCCCUGCCAGCAGUCUUCUUGGAAUUCUCGGGUGCCAA`, “RBNS enrichment (R)” read 0.374.
`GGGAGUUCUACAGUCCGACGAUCCCCAGGAGUUCAAGACCAGCCUGAGAAACAUAGUGAGACCCUGUCUCUAAAAAAAUAAAAACUUAGCAAGGCAUGGUGGUGCACACCUGUAGUCCUAGCUACUCAGGAGGUGGAAUUCUCGGGUGCCAA` — result for “RBNS enrichment (R)”: 0.294.
For `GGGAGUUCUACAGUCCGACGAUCUACUUUAUAAUGAUAGAAGUCCAACCGUUUUUUAAAAAAUAAAUUUAAAAUUUAACAGCAAUCAGCUAACAGGCAAAUUAAGAUUUUUACUUCUGGCUGGUGACAGUAAAUGGAAUUCUCGGGUGCCAA`, “RBNS enrichment (R)” read 1.06.
Under “RBNS enrichment (R)”, `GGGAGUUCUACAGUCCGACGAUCCAAGCAAGUGGCUGCAGGGACACUGAUGCCACAGCUCCUGGGCCGGCCCUCACAUCUGAAACUGGUUGCCGAGAGCCCUGAGCCAAGGCAAGGAUUUGCCAAAAAUGUUCUGGAAUUCUCGGGUGCCAA` is recorded as 0.188.

Further values, each from its own experiment
`O=C(NS(=O)(=O)c1ccc(NCC2CCOCC2)c([N+](=O)[O-])c1)c1ccc(N2CCN(Cc3ccc(C(F)(F)F)cc3-c3ccc(Cl)cc3)CC2)cc1Oc1cnc2[nH]ccc2c1` has a remaining binding of 100% (Serine/threonine-protein kinase 17A (STK17A, Homo sapiens, UniProt Q9UEE5); cell-free assay, competition with immobilised ligand; 1 µM).

Some of these lines once more (set 3):
For `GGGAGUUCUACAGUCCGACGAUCGAAAUAUAUCUACCCAAAGAGGUAACAUCCUAUAAAUAGUAGUAAUUAAUUUAGCUGCAACCUUUUUAGGUAUUAAAUUACAUGACAAACAGUUAAAAUGAAUUUAAGAAUGGAAUUCUCGGGUGCCAA`, “RBNS enrichment (R)” read 0.557.
For `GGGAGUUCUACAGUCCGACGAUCGGGUGUUCACAGAUGGAGCGAGCUUGCAGCCGCGUGGCUGUGCUGCUCUGUGAGAAGGCGUGCCAGCCAUUAGGAAGCCCCACCGCCAAAGGAGGUGCACCCAGGAGGGUUGGAAUUCUCGGGUGCCAA`, “RBNS enrichment (R)” read 0.911.
Under “RBNS enrichment (R)”, `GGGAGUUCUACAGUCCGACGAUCAAUAGUAACAUUUACCUGUCCACUGUGAAUCAAAGCCUGGGGCACGCUACUCAACCUUAGACACACUUACAGGCUUUUAUUUUGAUUGUGUUAUUUUAUUUUCCAUACAGUGGAAUUCUCGGGUGCCAA` is recorded as 0.741.
